Measurements pooled from the literature.
Protocols differ between the studies behind these lines. ± gives the spread as reported.
B1: enzyme (Nicotiana tabacum, UniProt A0A1S3XCJ5); chain MLPQLSNSSGSGYSWMQDNSASCGNFSRNGRKQGPLNSVAPTERAQISSVDDLYDFICSGPLINKIGLTPEKVAESIDKWIEYGFRLCRLFQLNQLALNEPQKIRLYHYYIPVFLWCEQEISQHSSKFKDNEEIPPLVIGFSAPQGCGKTTLVFALEYLFKITGRKAATLSIDDFYLTAEEQAKLRENNPGNLLLEFRGNAGSHDLSLSVETLAELSKVTKEGVKMKLPRYDKSAYNGRGDRADPSTWPEVEGPLTVILFEGWMLGFKPLPPEAVKAVDPQLETVNKNLEAYYDAWYKYVKSWIIIKIHDPSYVYQWRLQAEIAMRADGNPGMSDEEVRDFVSRYLPAYKAYLPTLYSEGPTGADPEHVLLVEIDEGRNPILGS
B2: ADSL R303C (Homo sapiens, UniProt P30566); chain MAAGGDHGSPDSYRSPLASRYASPEMCFVFSDRYKFRTWRQLWLWLAEAEQTLGLPITDEQIQEMKSNLENIDFKMAAEEEKRLRHDVMAHVHTFGHCCPKAAGIIHLGATSCYVGDNTDLIILRNALDLLLPKLARVISRLADFAKERASLPTLGFTHFQPAQLTTVGKRCCLWIQDLCMDLQNLKRVRDDLRFRGVKGTTGTQASFLQLFEGDDHKVEQLDKMVTEKAGFKRAFIITGQTYTRKVDIEVLSVLASLGASVHKICTDIRLLANLKEMEEPFEKQQIGSSAMPYKRNPMRSECCCSLARHLMTLVMDPLQTASVQWFERTLDDSANRRICLAEAFLTADTILNTLQNISEGLVVYPKVIERRIRQELPFMATENIIMAMVKAGGSRQDCHEKIRVLSQQAASVVKQEGGDNDLIERIQVDAYFSPIHSQLDHLLDPSSFTGRASQQVQRFLEEEVYPLLKPYESVMKVKAELCL
B3: enzyme (Bacillus thuringiensis, UniProt P0CJ63); chain MTVKKLYFIPAGRCMLDHSSVNSALTPGKLLNLPVWCYLLETEEGPILVDTGMPESAVNNEGLFNGTFVEGQILPKMTEEDRIVNILKRVGYEPDDLLYIISSHLHFDHAGGNGAFTNTPIIVQRTEYEAALHREEYMKECILPHLNYKIIEGDYEVVPGVQLLYTPGHSPGHQSLFIETEQSGSVLLTIDASYTKENFEDEVPFAGFDPELALSSIKRLKEVVKKEKPIIFFGHDIEQEKSCRVFPEYI
B4: enzyme (Pseudideonella sakaiensis, UniProt A0A0K8P6T7); chain QTNPYARGPNPTAASLEASAGPFTVRSFTVSRPSGYGAGTVYYPTNAGGTVGAIAIVPGYTARQSSIKWWGPRLASHGFVVITIDTNSTLDQPSSRSSQQMAALRQVASLNGTSSSPIYGKVDTARMGVMGWSMGGGGSLISAANNPSLKAAAPQAPWDSSTNFSSVTVPTLIFACENDSIAPVNSSALPIYDSMSRNAKQFLEINGGSHSCANSGNSNQALIGKKGVAWMKRFMDNDTRYSTFACENPNSTRVSDFRTANCS
B5: enzyme (Enterococcus faecalis, UniProt Q836M4); chain MEIHFEKVTSDNRKAVENLQVFAEQQAFIESMAENLKESDQFPEWESAGIYDGNQLIGYAMYGRWQDGRVWLDRFLIDQRFQGQGYGKAACRLLMLKLIEKYQTNKLYLSVYDTNSSAIRLYQQLGFVFNGELDTNGERVMEWTHQNK
B6: bglA S39T (Acetivibrio thermocellus, UniProt P26208); chain MSKITFPKDFIWGSATAAYQIEGAYNEDGKGESIWDRFTHTPGNIADGHTGDVACDHYHRYEEDIKIMKEIGIKSYRFSISWPRIFPEGTGKLNQKGLDFYKRLTNLLLENGIMPAITLYHWDLPQKLQDKGGWKNRDTTDYFTEYSEVIFKNLGDIVPIWFTHNEPGVVSLLGHFLGIHAPGIKDLRTSLEVSHNLLLSHGKAVKLFREMNIDAQIGIALNLSYHYPASEKAEDIEAAELSFSLAGRWYLDPVLKGRYPENALKLYKKKGIELSFPEDDLKLISQPIDFIAFNNYSSEFIKYDPSSESGFSPANSILEKFEKTDMGWIIYPEGLYDLLMLLDRDYGKPNIVISENGAAFKDEIGSNGKIEDTKRIQYLKDYLTQAHRAIQDGVNLKAYYLWSLLDNFEWAYGYNKRFGIVHVNFDTLERKIKDSGYWYKEVIKNNGF
Chain of UniProt Q9GV41 (whole entry, looked up): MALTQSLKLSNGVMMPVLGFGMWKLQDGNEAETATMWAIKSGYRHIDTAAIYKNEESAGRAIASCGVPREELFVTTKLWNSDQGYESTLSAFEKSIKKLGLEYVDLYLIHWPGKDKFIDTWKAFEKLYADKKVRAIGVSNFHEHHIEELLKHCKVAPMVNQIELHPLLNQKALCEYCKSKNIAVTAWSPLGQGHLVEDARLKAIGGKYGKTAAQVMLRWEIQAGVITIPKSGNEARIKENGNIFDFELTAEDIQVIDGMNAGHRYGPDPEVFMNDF
Chain of UniProt O31616 (whole entry, looked up): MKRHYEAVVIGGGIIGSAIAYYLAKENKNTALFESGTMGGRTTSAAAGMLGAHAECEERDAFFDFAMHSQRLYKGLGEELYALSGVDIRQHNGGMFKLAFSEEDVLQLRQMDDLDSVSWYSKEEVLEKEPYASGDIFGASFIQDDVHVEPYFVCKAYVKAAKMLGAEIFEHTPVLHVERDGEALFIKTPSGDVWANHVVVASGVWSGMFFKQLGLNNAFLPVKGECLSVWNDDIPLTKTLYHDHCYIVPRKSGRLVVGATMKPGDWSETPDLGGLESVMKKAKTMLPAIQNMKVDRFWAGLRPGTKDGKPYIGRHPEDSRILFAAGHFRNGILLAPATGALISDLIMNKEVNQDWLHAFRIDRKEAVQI

B1 (enzyme)  kcat (Nc1ncnc2c1ncn2[C@@H]1O[C@H](COP(=O)(O)OP(=O)(O)OP(=O)(O)O)[C@@H](O)[C@H]1O; steady-state kinetics; pH 7.8, 30 °C): 57.8 ± 1.11 s⁻¹
nfsB K14Q (Escherichia coli)  kcat (NC(=O)N/N=C/c1ccc([N+](=O)[O-])o1; steady-state kinetics; pH 7, 37 °C): 1.7 ± 0.1 s⁻¹
enzyme (Trypanosoma brucei, UniProt Q9GV41)  kcat ([H][C@]12C[C@]([H])(OO1)[C@H](C/C=C\CCCC(=O)O)[C@H]2/C=C/[C@@H](O)CCCCC; steady-state kinetics; pH 7, 37 °C): 1.05 s⁻¹
enzyme (Nilaparvata lugens, UniProt B3GVW3)  kcat (COc1ccc([C@@H]2CC(=O)c3c(O)cc(O)cc3O2)cc1O; steady-state kinetics; not purified): 0.0127 ± 0.002 s⁻¹
Cj1438c (Campylobacter jejuni, UniProt Q0P8H6)  kcat (NCCOP(=O)(O)O; steady-state kinetics; pH 8, 25 °C, apparent): 3 ± 0.1 s⁻¹
insulin human  fold change (item: NAV3 mRNA; uninfected mouse, brain; i.p., dose not given; baseline: PBS): 1.1
enzyme (Bacillus subtilis, UniProt O31616)  kcat (O=C(O)CNCP(=O)(O)O; steady-state kinetics; pH 8, 25 °C): 0.443 ± 0.056 s⁻¹
B2 (ADSL R303C)  kcat (Nc1c(C(=O)N[C@@H](CC(=O)O)C(=O)O)ncn1[C@@H]1O[C@H](COP(=O)(O)O)[C@@H](O)[C@H]1O; steady-state kinetics; pH 7.4, 25 °C): 27.2 ± 0.4 s⁻¹
B3 (enzyme)  kcat (CCCC(=O)N[C@H]1CCSC1=O; steady-state kinetics; pH 8, added: CoCl2 0.2 mM, DTNB 2 mM): 176 ± 17.1 s⁻¹
B4 (enzyme)  kcat (O=C(OCCO)c1ccc(C(=O)OCCO)cc1; steady-state kinetics; 30 °C): 6.5 s⁻¹
B5 (enzyme)  kcat (NCCCNCCCCNCCCN; steady-state kinetics; pH 8, 37 °C, Hill n 1.7, added: AcCoA 1 mM): 23.7 ± 0.7 s⁻¹
rCR L137V/L34A (Lodderomyces parapsilosis)  kcat (CC(=O)c1ccccc1; steady-state kinetics; pH 7, 30 °C, added: NADH 0.5 mM): 2.72 s⁻¹
B6 (bglA S39T)  kcat (O=[N+]([O-])c1ccc(O[C@@H]2O[C@H](CO)[C@@H](O)[C@H](O)[C@H]2O)cc1; steady-state kinetics; pH 5.5, 60 °C): 260 ± 8 s⁻¹

Some of these lines once more:
B2 (ADSL R303C)  kcat (Nc1c(C(=O)N[C@@H](CC(=O)O)C(=O)O)ncn1[C@@H]1O[C@H](COP(=O)(O)O)[C@@H](O)[C@H]1O; steady-state kinetics; pH 7.4, 25 °C): 27.2 ± 0.4 s⁻¹
